Results from different studies.
Each line is one published result; not all experiments were run side by side. Numbers after ± are the reported error.

SMILES | test | system | conditions | how to read | quantity | value
CN(Cc1ccc(F)cc1)Cc1cc(=O)oc2cc(O)ccc12 |  | human serum | 0.5 mM, 180 min |  | remaining intact compound | > 99%
CC[C@H](C)[C@H](NC(=O)[C@H](Cc1ccccc1)NC(=O)[C@H](CCN)NC(=O)[C@H](CCCNC(=N)N)NC(=O)[C@H](Cc1ccccc1)NC(=O)[C@H](Cc1ccccc1)NC(=O)[C@H](CCCCN)NC(=O)[C@H](CO)NC(=O)[C@H](CC(C)C)NC(=O)[C@H](CCCNC(=N)N)NC(=O)[C@H](CCSC)NC(=O)[C@H](C)N)C(=O)N[C@@H](CC(C)C)C(=O)N[C@@H](CCCN)C(=O)N[C@@H](CCCNC(=N)N)C(=O)N[C@@H](CCCCN)C(=O)N[C@@H](CCCCN)C(=O)O | circular dichroism | 20% TFE in PBS | 200 µM, pH 7.4, 25 °C |  | helicity | 23.6%
NC(=S)N/N=C/c1cc(Cl)ccc1O | cyclic voltammetry | anhydrous DMF | Cu2+ complex, glassy carbon electrode |  | peak potential separation | 0.159 mV
CCCC[C@@H]1NC(=O)[C@@H](NC(=O)[C@H](CCC(=O)O)NC(=O)CNC(=O)CN2CCN(CC(=O)O)CCN(CC(=O)O)CCN(CC(=O)O)CC2)CCCCNC(=O)C[C@@H](C(N)=O)NC(=O)[C@H](C(C)C)NC(=O)[C@@H]2CCCN2C(=O)[C@H](CCCNC(=N)N)NC(=O)CNC(=O)[C@H](Cc2c[nH]c3ccccc23)NC(=O)[C@H](CCCNC(=N)N)NC(=O)[C@@H](Cc2ccccc2)NC(=O)[C@H](Cc2c[nH]cn2)NC(=O)[C@H](CCC(=O)O)NC1=O [gallium-67 labelled] |  | normal C57 mice, blood | intravenous, 0.037 MBq/mouse, 4 h |  | tissue uptake | 0.19 ± 0.11 %ID/g
CCCCCCCCCCCCCCCC(=O)N[C@@H](CCCCN)C(=O)N[C@@H](CCCCN)C(=O)N[C@@H](CO)C(=O)N[C@@H](CCCNC(=N)N)C(=O)N[C@@H](C)C(=O)N[C@@H](CC(C)C)C(=O)N[C@@H](Cc1ccccc1)C(N)=O |  | cynomolgus monkey, male | 3 mg/kg, day 1 |  | prothrombin time | 11.8 ± 0.4 s
C=CC(=O)Nc1cc(Nc2nccc(-c3cn(C)c4ccccc34)n2)c(OCC(F)(F)F)nc1NCCN(C)C | LC-MS | human liver microsomes | 3 µM, 60 min, with: quercetin 20 µM | relative to: no inhibitor | remaining parent compound | 53%
Cc1ccc(OCC(=O)O)cc1 |  | Sprague-Dawley rat, female, plasma | oral gavage, 10 mg/kg of parent drug |  | Tmax | 0.63 h
CC(C)(Sc1cc[n+]([O-])cc1-c1ccc(C#N)c2ccccc12)C(=O)OC1OC(C(=O)O)C(O)C(O)C1O (stereo not drawn) |  | adult men, plasma | oral, 15 mg verinurad, severe renal impairment | relative to: impaired over normal renal function | Cmax ratio | 370%
CCCC1OC2CC3C4CCC5=CC(=O)C=CC5(C)C4C(O)CC3(C)C2(C(=O)COC(=O)CN)O1 (stereo not drawn) |  | rat lung homogenate | 200 µg/mL, 6 h |  | hydrolysed conjugate | 84%
CC(C)c1cnc(-c2cc(Cl)ccc2F)cc1Nc1ccncc1C(=O)NC(CO)CO | measured: anaemia | human patients | oral, dose not given, grade 5 |  | patients with related SAE | 0%
CCCC[C@H](NC(=O)CNC(=O)CNC(=O)CN1CCN(CC(=O)O)CCN(CC(=O)O)CC1)C(=O)N[C@H]1CC(=O)NCCCC[C@@H](C(N)=O)NC(=O)[C@H](Cc2c[nH]c3ccccc23)NC(=O)[C@H](CCCNC(=N)N)NC(=O)[C@@H](Cc2ccccc2)NC(=O)[C@H](Cc2c[nH]cn2)NC1=O [copper-64 labelled] |  | female C57 mouse, B16/F1 melanoma | intravenous, 0.037 MBq, 0.5 h | relative to: tumour over stomach | uptake ratio | 19.2
N#Cc1cnc2cc(OCC3CCNCC3)c(F)cc2c1Nc1cc(F)c(OCc2cccc(Cl)n2)cc1Cl |  | female CD-1 mouse, plasma | oral, 20 mg/kg |  | MRT | 8.9 h
COC(=O)C(c1ccccc1Cl)N1CCC2SC(=O)C=C2C1 (stereo not drawn) |  | acetonitrile | -20 °C |  | stock solution stability time | ≥ 2 months
N=C(N)NCCC[C@@H]1NC(=O)[C@H](Cc2c[nH]c3ccccc23)NC(=O)[C@@H](CC2CCCCC2)NC(=O)[C@@H]2CCCN2C(=O)[C@@H](NC(=O)CCc2ccccc2)CCCNC1=O |  | C57BL/6J mouse, plasma brain | subcutaneous, 1 mg/kg single dose |  | MRT(0-last) | 43.2 min
NS(=O)(=O)c1ccc(-n2cc(CNc3ccccc3Cl)c(-c3ccc(OCc4ccccc4)cc3)n2)cc1 |  | Wistar rat, gastric mucosa | oral, 60 mg/kg, 17 h | relative to: vehicle | ulcer severity index | 0.64 ± 0.43
CCN(CC)CC#CCNc1ccnc2cc(Cl)ccc12 |  | human hepatocytes | 10 µM, 30 min |  | parent compound remaining | 55%
CCCC(CCC)NC(=O)c1ccc(OS(=O)(=O)O)c(OC)c1 |  | male Sprague-Dawley rat, plasma | oral, 50 mg/kg of parent drug |  | Tmax | 2 h
CN1CCC[C@]1(C)/C=C/S(=O)(=O)NC(=O)Nc1c2c(cc3c1CCC3)CCC2 |  | human, urine | oral, 100 mg single dose |  | amount recovered in urine | 76.6 mg
CN(C)C(CNC(=O)Nc1cc(C(F)(F)F)ccc1N1CCOCC1)c1ccncc1 (stereo not drawn) |  | human, plasma |  |  | fraction unbound | 0.086
CC(=O)N[C@H](CCNC(=O)c1cc(NC(=O)c2cc(NC(=O)c3cc(NC(=O)c4nccn4C)cn3C)cn2C)cn1C)C(=O)Nc1cn(C)c(C(=O)Nc2cc(C(=O)Nc3cc(C(=O)Nc4cc(C(=O)NCCCN(C)CCCN[14C](=O)c5cccc([14C](=O)O)c5)n(C)c4)n(C)c3)n(C)c2)n1 |  | NSG male mice, LNCaP xenograft, liver | intraperitoneal, 20 nmol per animal, 24 h |  | tissue concentration | 1.04 mg/kg
O=C(CCc1ccc(CNC(C(=O)OC2CCCC2)C2CCCCC2)cn1)NO (stereo not drawn) |  | human | oral, 20 mg, single dose, geometric mean |  | Vz/F | 245 L
CONC(=O)/C=C/c1cccc(S(=O)(=O)Nc2ccccc2)c1 |  | human, moderate liver dysfunction, plasma | intravenous, 400 mg/m^2 belinostat, cycle 1 day -7, geometric mean | relative to: metabolite over belinostat | Cmax metabolic ratio | 0.149
Cn1c(=O)oc2ccc(-c3ccc(CC(C#N)NC(=O)C4CNCCCO4)c(F)c3)cc21 (stereo not drawn) | measured: macule | human | 15 mg single dose, fasted |  | subjects with TRAE | 0%
CNCCCn1c2ccc([N+](=O)[O-])cc2c(=O)n1Cc1ccccc1 | resazurin | peritoneal macrophages, BALB/c mice | 48 h, 10% FBS |  | CC50 | 2500 ± 400 nM
CCCCCCCCCCCCCCCC(=O)N[C@@H](CCC(=O)NCCCC[C@H](NC(=O)[C@H](C)NC(=O)[C@H](C)NC(=O)[C@H](CCC(N)=O)NC(=O)CNC(=O)[C@H](CCC(=O)O)NC(=O)[C@H](CC(C)C)NC(=O)[C@H](Cc1ccc(O)cc1)NC(=O)[C@H](CO)NC(=O)[C@H](CO)NC(=O)[C@@H](NC(=O)[C@H](CC(=O)O)NC(=O)[C@H](CO)NC(=O)[C@@H](NC(=O)[C@H](Cc1ccccc1)NC(=O)[C@@H](NC(=O)CNC(=O)[C@H](CCC(=O)O)NC(=O)[C@H](C)NC(=O)[C@@H](N)Cc1cnc[nH]1)[C@@H](C)O)[C@@H](C)O)C(C)C)C(=O)N[C@@H](CCC(=O)O)C(=O)N[C@@H](Cc1ccccc1)C(=O)N[C@H](C(=O)N[C@@H](C)C(=O)N[C@@H](Cc1c[nH]c2ccccc12)C(=O)N[C@@H](CC(C)C)C(=O)N[C@H](C(=O)N[C@@H](CCCNC(=N)N)C(=O)NCC(=O)N[C@@H](CCCNC(=N)N)C(=O)NCC(=O)O)C(C)C)[C@@H](C)CC)C(=O)O |  | healthy Chinese men | sc, dose not given |  | adverse event incidence | 22.4%
Cc1cc(O)cc(O)c1C(=O)c1c2c3c(c(O)cc(C)c3oc1=O)C(=O)c1c(O)cc(O)cc1-2 |  | Caco-2 monolayer | 200 µM, 3 h, pH 7.4 | relative to: AP to BL over BL to AP | efflux ratio | 37.7
C[C@@H](O)[C@@H]1NC(=O)[C@H](CCCCN)NC(=O)[C@@H](Cc2ccc(NC(N)=O)cc2)NC(=O)[C@H](Cc2ccc(NC(=O)[C@@H]3CC(=O)NC(=O)N3)cc2)NC(=O)[C@H](NC(=O)[C@H](Cc2ccc(Cl)cc2)NC(=O)CN2CCN(CC(=O)O)CCN(CC(=O)O)CCN(CC(=O)O)CC2)CSSC[C@@H](C(=O)N[C@H](Cc2ccc(O)cc2)C(N)=O)NC1=O |  | mouse serum | concentration not given, 37 °C |  | protein-bound activity | < 10%

For quick reference, copied from above:
SMILES | test | system | conditions | how to read | quantity | value
CCCC[C@H](NC(=O)CNC(=O)CNC(=O)CN1CCN(CC(=O)O)CCN(CC(=O)O)CC1)C(=O)N[C@H]1CC(=O)NCCCC[C@@H](C(N)=O)NC(=O)[C@H](Cc2c[nH]c3ccccc23)NC(=O)[C@H](CCCNC(=N)N)NC(=O)[C@@H](Cc2ccccc2)NC(=O)[C@H](Cc2c[nH]cn2)NC1=O [copper-64 labelled] |  | female C57 mouse, B16/F1 melanoma | intravenous, 0.037 MBq, 0.5 h | relative to: tumour over stomach | uptake ratio | 19.2
COC(=O)C(c1ccccc1Cl)N1CCC2SC(=O)C=C2C1 (stereo not drawn) |  | acetonitrile | -20 °C |  | stock solution stability time | ≥ 2 months
